# Experimental data collected from several papers.
# Parts stem from different laboratories: compare values within a part only.

# Series 1
# Target: Histone acetyltransferase KAT6A, winged helix 1, GST fusion (KAT6A, Homo sapiens, UniProt Q92794, residues 1-85)
# Method: protein binding microarray
# Molecule type: double-stranded DNA, one strand shown
# Medium: in vitro
# Concentration: not given
# Notes: 8-mer, flanks averaged, mean of 2 arrays, mostly near background
# Relative to: not given
# Direction: higher = stronger binding
# Construct (chain): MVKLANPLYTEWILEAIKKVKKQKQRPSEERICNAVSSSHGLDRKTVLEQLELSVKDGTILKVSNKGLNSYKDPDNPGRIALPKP
Sequence,E-score
AGATACAT,-0.17
CTCTAGGA,-0.0481
GCCGGGCC,0.318
GACCCTTA,0.0829
CTCGATAA,-0.0897

# Series 2
# Target: Sal-like protein 4, full length isoform A (SALL4, Homo sapiens, UniProt Q9UJQ4, residues 1-1053)
# Chain of UniProt Q9UJQ4 (whole entry, looked up): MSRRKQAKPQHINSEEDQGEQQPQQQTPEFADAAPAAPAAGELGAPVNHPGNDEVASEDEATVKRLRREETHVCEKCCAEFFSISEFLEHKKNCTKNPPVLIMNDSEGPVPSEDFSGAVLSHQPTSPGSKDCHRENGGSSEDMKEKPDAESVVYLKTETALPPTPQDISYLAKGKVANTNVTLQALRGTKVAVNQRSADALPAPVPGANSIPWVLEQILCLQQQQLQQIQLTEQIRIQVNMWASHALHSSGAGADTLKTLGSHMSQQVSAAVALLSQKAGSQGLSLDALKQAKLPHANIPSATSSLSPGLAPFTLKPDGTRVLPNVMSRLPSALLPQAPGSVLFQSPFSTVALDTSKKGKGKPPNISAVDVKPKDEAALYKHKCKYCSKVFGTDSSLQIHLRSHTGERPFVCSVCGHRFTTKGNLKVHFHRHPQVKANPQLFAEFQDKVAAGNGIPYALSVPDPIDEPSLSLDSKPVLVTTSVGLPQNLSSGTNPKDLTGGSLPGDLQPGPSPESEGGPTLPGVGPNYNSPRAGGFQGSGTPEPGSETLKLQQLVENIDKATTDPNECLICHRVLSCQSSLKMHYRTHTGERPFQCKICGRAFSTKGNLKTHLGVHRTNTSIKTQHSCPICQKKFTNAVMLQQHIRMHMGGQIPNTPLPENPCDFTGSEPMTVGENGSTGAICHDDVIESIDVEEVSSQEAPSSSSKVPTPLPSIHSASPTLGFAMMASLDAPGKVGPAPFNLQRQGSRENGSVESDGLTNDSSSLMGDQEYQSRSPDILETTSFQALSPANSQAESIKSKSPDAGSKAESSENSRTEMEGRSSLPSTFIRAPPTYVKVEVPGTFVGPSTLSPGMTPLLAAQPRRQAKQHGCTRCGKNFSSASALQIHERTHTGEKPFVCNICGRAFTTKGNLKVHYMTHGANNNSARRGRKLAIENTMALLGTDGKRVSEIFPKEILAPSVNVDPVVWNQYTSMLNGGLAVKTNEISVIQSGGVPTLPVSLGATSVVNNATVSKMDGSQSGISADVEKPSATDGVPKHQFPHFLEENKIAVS
# Method: universal PBM
# Molecule type: double-stranded DNA, one strand shown
# Medium: in vitro
# Concentration: 600 nM
# Notes: 8-mer, flanks averaged, mean of replicates
# Direction: higher = stronger binding
Sequence,E-score
CGTGGTCC,-0.31
ATAGCAAG,0.235
AACTTTGC,-0.127
GTCTCGAA,0.0498
TGCGAACA,0.0595
AAAAGGTG,0.111
ACCAGACA,-0.0212

# Series 3
# Target: Ras GTPase-activating protein-binding protein 1, full length (G3BP1, Homo sapiens, UniProt Q13283)
# Chain of UniProt Q13283 (whole entry, looked up): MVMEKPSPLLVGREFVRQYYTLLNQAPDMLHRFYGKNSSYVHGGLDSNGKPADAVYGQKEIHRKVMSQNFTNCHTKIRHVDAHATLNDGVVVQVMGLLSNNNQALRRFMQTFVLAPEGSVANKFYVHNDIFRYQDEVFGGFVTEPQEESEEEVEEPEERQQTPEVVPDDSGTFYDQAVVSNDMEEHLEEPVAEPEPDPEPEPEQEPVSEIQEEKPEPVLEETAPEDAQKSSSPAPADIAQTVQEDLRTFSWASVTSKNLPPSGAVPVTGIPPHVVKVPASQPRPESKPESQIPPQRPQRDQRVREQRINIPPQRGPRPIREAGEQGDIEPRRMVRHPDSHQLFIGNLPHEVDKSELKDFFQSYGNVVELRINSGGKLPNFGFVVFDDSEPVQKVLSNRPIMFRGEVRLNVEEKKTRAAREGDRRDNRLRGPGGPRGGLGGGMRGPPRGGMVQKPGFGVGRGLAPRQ
# Method: RNA Bind-n-Seq
# Molecule type: RNA
# Medium: in vitro
# Concentration: 200 nM
# Notes: whole 134-nt RNA, ends assumed
# Added: 150 mM LiCl
# Relative to: input library
# Direction: higher = stronger binding
# Library: 7-deaza-guanosine replaces G
Sequence,log2 enrichment
GGGAGUUCUACAGUCCGACGAUCCUGUGCUACACAUCGUAUGUACCGAAUCGGGGUUUUUUUGGGGUUUUUUUGGUUUUUUUGGAAAGUAUUAUGUUACGCCGUUCGGAUCUGUGGAAUUCUCGGGUGUCAAGG,1.31
GGGAGUUCUACAGUCCGACGAUCUUGGACUUGGAGCAUCUGCUCAGUGAGUCUCCAGAAGGAAGUCCCUUCCGAGAUAUGGAUGAUGGAAGUGAUUCCCUUGGGGUGGGAUUGUGGAAUUCUCGGGUGUCAAGG,-2.23
GGGAGUUCUACAGUCCGACGAUCUGUGCUACACAUCGUAUGUACCGAAUCGGGGAAAAAGGGGAAAAAAAGGGGAAAAAAAGGGGAAAGUAUUAUGUUACGCCGUUCGGAUCUUGGAAUUCUCGGGUGUCAAGG,0.752

# Mixed results
Substance,target,test,system,setting,scale,quantity,result
"PhoQ, residues 284 288 289 292 302 303 GANMMA","PhoP, residues 12 14 15 18 19 HEGLL (Escherichia coli, UniProt P23836)","Sort-seq, item: YFP reporter",E. coli,"PhoQ-PhoP variant library, added: 10 µM Mg2+","relative to: high Mg2+ state, higher = stronger signaling",fold induction,0.894

# Repeated from above (series 2):
Sequence,E-score
TGCGAACA,0.0595
ATAGCAAG,0.235
